Results collected from several papers.
Protocols differ between the studies behind these lines. Numbers after ± are the reported error.

O=C(CCCCCCCc1ccc2[nH]c3ccccc3c2c1)NO gave an IC50 of 0.6 µM (histone deacetylase, mouse; inhibitor; GL261 cell nuclear extract).
The IC50 of COc1cc(CCC(C)=O)ccc1O is reported as over 4000 ng/mL (mAb 2-LD2; antibody binding, indirect competitive ELISA; together with: coating antigen hapten 2-OVA).
N=C(N)NCCC[C@@H]1NC(=O)[C@H](Cc2c[nH]c3ccccc23)NC(=O)[C@@H](CC2CCCCC2)NC(=O)[C@@H]2CCCN2C(=O)[C@@H](NC(=O)CCc2ccccc2)CCCNC1=O has an MRT(0-inf) of 1.24 h (C57BL/6J mouse, plasma brain; intraperitoneal, 1 mg/kg single dose).
For C=CC(=O)N1[C@H](c2ccc3c(c2)OCO3)c2[nH]c3ccccc3c2C[C@@H]1C(=O)N1CCN2CCOC[C@@H]2C1, the IC50 was over 20 µM (human NanoLuc-cyclin E1 N112C; probe labelling, BRET-ABPP; HEK293T cell lysate; 2 h pre-treatment, target engagement, together with: probe YZ-01-A 10 µM 90 min).
With O=C(/C=C/c1coc2ccccc2c1=O)N1CCN(C(=S)SCc2ccccc2)CC1 the inactivation effect was 53.2 ± 5.4% (tomato spotted wilt virus; viral infection, half-leaf method; Nicotiana glutinosa; 500 µg/mL).
Cc1cc(N)c2cc(NC(=O)CCC(=O)Nc3ccc4nc(C)cc(N)c4c3)ccc2n1 gave an IC50 of 38.9 ± 2.1 µM (factor Xa; anticoagulant neutralization, chromogenic; together with: fondaparinux 0.2 IU/mL, human antithrombin III).
With CCCSC(=S)N1CCN(C(=O)/C=C/c2coc3ccccc3c2=O)CC1 the inactivation effect was 48.5 ± 3.2% (tomato spotted wilt virus; viral infection, half-leaf method; Nicotiana glutinosa; 500 µg/mL).
For CC[C@H](C)[C@@H]1NC(=O)[C@H](CCCNC(=N)N)NC(=O)[C@@H]2CCCN2C(=O)[C@H](C(C)C)NC(=O)[C@H](CO)NC(=O)[C@H]([C@@H](C)O)NC(=O)CNC(=O)[C@H](CC(=O)O)NC(=O)[C@@H](NC(=O)[C@@H](N)C(C)C)CSSC[C@@H](C(=O)N[C@H](C(=O)O)C(C)C)NC1=O, the IC50 was over 100 µM (TGF-beta signalling; Smad2/3 reporter gene, antagonist; HEK-293T; 4 h, together with: TGF-beta 1 ng/mL).
With CC(C)c1cnc(-c2cc(Cl)ccc2F)cc1Nc1ccncc1C(=O)NC(CO)CO the IC50 was 0.0667 ± 0.0115 µM (TGF-β receptor type 1 (mouse); SMAD2 Ser465/467 phosphorylation, inhibitor; 4T1; total drug, together with: TGF-β).
With CC(C)c1ccc(C(=O)Nc2ccc(CN3CCN(C)CC3)c(C(F)(F)F)c2)cc1C#Cc1cnc2cccnn12 the IC50 was 0.472 µM (RIPK2; NF-kB reporter gene, inhibitor; HEK-Blue NOD2 NF-kB-SEAP; 8 h, together with: 1 µg/mL L18-MDP).
With CCCCC/C=C/C(=O)CCc1ccc(O)c(OC)c1 the IC50 was 2.38 ng/mL (mAb 2-LD2; antibody binding, indirect competitive ELISA; together with: coating antigen hapten 4-OVA).
CC(C)=CCC/C(C)=C/Cc1c(CCC(=O)c2ccc(O)cc2O)ccc(O)c1O has an IC50 of 13.6 ± 2.19 µM (mitochondrial complex I-III (bovine heart); NADH-cytochrome c reductase, inhibitor).
With O=C(CCCC(=NO)n1c2ccccc2c2ccccc21)NO the IC50 was 1 µM (histone deacetylase, mouse; inhibitor; GL261 cell nuclear extract).
For Cc1cc(N)c2cc(NC(=O)Nc3ccc4nc(C)cc(N)c4c3)ccc2n1, the IC50 was 6.4 ± 0.4 µM (factor Xa; anticoagulant neutralization, chromogenic; together with: enoxaparin 0.2 IU/mL, human antithrombin III).
NCCCCC(N)C(=O)NC[C@@H]1O[C@H](O[C@H]2[C@@H](O)[C@H](O[C@@H]3[C@@H](O)[C@H](NC(=O)C(N)CCCCN)C[C@H](NC(=O)C(N)CCCCN)[C@H]3O[C@H]3O[C@H](CNC(=O)C(N)CCCCN)[C@@H](O)[C@H](O)[C@H]3NC(=O)C(N)CCCCN)O[C@@H]2CO)[C@H](NC(=O)C(N)CCCCN)[C@@H](O)[C@@H]1O (some centres unmarked) gave an IC50 of about 3 µM (RNase P holoenzyme Escherichia coli; 37 °C, together with: 10 mM Mg2+).
The IC50 of Cc1cc(N)c2cc(NC(=O)COCC(=O)Nc3ccc4nc(C)cc(N)c4c3)ccc2n1 is reported as 13.6 ± 0.6 µM (factor Xa; anticoagulant neutralization, chromogenic; together with: enoxaparin 0.2 IU/mL, human antithrombin III).
With [64Cu+2].c1ccc(CNCc2ccc(CN3CCCN4CCNCCCN(CC4)CC3)cc2)nc1 the tissue uptake was 1.56 ± 0.28 %ID/g (CXCR4; NOD/SCID mouse, U87 and U87-stb-CXCR4 xenografts, heart; iv, 120 min, ex vivo).

Repeated from above:
For C=CC(=O)N1[C@H](c2ccc3c(c2)OCO3)c2[nH]c3ccccc3c2C[C@@H]1C(=O)N1CCN2CCOC[C@@H]2C1, the IC50 was over 20 µM (human NanoLuc-cyclin E1 N112C; probe labelling, BRET-ABPP; HEK293T cell lysate; 2 h pre-treatment, target engagement, together with: probe YZ-01-A 10 µM 90 min).
With O=C(/C=C/c1coc2ccccc2c1=O)N1CCN(C(=S)SCc2ccccc2)CC1 the inactivation effect was 53.2 ± 5.4% (tomato spotted wilt virus; viral infection, half-leaf method; Nicotiana glutinosa; 500 µg/mL).
Cc1cc(N)c2cc(NC(=O)CCC(=O)Nc3ccc4nc(C)cc(N)c4c3)ccc2n1 gave an IC50 of 38.9 ± 2.1 µM (factor Xa; anticoagulant neutralization, chromogenic; together with: fondaparinux 0.2 IU/mL, human antithrombin III).
